Published values of several laboratories.
Values joined by “and” are separate records of one study, mostly repeats; a detail may differ. Numbers after ± are the reported error.
SLCO1B3: Solute carrier organic anion transporter family member 1B3 (SLCO1B3, Homo sapiens, UniProt Q9NPD5)
Sequence of UniProt Q9NPD5 (whole entry, looked up): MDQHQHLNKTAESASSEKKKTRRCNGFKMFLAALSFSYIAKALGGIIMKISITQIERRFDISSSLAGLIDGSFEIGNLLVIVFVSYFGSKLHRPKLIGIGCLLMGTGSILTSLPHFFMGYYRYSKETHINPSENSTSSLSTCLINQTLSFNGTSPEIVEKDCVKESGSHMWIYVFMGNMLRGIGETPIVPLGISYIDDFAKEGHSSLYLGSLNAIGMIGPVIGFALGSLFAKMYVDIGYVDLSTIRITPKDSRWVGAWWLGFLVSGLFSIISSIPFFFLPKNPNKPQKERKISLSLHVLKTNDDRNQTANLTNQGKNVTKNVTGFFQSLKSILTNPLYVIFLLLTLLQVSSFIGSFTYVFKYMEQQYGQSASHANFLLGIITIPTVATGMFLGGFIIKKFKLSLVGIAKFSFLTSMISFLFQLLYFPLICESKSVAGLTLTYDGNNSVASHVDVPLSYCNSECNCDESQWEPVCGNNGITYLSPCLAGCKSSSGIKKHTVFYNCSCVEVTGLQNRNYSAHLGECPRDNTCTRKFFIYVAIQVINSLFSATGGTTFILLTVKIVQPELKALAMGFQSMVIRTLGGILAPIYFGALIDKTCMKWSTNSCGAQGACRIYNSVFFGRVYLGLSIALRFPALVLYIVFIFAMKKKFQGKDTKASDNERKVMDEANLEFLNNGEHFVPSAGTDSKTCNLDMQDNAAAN
TF: TF (Homo sapiens, UniProt P02787)
ABCG2: Broad substrate specificity ATP-binding cassette transporter ABCG2 (ABCG2, Homo sapiens, UniProt Q9UNQ0)
Sequence of UniProt P05177 (whole entry, looked up): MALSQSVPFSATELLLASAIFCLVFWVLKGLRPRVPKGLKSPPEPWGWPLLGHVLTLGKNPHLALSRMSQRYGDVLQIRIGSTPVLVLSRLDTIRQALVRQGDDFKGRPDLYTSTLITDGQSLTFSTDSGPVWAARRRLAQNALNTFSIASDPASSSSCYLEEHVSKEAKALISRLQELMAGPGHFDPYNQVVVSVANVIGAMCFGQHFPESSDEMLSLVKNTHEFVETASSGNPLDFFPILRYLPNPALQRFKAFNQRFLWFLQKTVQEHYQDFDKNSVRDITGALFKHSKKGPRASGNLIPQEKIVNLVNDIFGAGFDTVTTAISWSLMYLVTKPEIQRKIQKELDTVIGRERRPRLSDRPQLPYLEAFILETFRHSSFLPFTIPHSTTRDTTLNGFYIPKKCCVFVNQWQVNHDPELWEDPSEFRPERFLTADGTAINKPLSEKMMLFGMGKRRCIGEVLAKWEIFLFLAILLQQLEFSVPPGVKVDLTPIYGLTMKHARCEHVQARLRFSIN
Sequence of UniProt Q9UNQ0 (whole entry, looked up): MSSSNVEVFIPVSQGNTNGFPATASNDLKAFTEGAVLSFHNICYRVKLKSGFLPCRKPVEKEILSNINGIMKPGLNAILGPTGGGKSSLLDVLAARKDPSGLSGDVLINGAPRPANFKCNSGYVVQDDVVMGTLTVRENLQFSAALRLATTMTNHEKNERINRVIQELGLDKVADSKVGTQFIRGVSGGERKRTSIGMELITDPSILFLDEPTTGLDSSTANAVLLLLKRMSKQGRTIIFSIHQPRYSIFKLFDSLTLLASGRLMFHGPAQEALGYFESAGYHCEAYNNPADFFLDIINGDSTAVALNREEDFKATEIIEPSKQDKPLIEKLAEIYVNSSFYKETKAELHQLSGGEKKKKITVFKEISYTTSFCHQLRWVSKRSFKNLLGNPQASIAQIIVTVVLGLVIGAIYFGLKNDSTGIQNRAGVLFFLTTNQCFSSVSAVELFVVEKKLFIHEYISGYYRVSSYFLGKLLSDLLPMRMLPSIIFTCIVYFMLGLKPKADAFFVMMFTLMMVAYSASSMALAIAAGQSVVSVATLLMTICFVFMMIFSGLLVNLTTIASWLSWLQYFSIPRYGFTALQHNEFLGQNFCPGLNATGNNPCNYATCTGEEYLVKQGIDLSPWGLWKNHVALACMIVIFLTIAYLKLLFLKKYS
Sequence of UniProt P08684 (whole entry, looked up): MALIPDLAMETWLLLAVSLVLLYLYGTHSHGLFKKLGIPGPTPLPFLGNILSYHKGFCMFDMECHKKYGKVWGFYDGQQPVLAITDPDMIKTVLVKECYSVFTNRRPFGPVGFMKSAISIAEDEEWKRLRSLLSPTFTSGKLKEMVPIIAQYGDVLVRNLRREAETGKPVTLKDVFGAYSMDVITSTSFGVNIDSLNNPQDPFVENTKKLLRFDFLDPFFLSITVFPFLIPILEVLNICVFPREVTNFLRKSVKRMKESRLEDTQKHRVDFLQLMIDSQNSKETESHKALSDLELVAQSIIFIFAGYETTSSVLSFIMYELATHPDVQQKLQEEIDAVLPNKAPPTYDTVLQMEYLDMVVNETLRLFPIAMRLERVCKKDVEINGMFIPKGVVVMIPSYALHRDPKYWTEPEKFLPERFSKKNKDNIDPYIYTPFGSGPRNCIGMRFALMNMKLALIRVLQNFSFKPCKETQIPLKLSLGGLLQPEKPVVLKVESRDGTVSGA

Compound = CC(C)(C)N1Cc2cccc(n2)CN(C(C)(C)C)Cc2cc(-c3nc4ccccc4s3)cc(n2)C1; target = Cu(II) complex; test = UV-vis titration; test system = 0.1 M NaCl; setting = 25 °C, bound water deprotonation; measurement = pKa; value = 10
Compound = O=C(c1ccc(OCCN2CCCCC2)cc1)c1c(-c2ccc(O)cc2)sc2cc(O[C@@H]3O[C@H](C(=O)O)[C@@H](O)[C@H](O)[C@H]3O)ccc12; target = SLCO1B3; test system = liver; measurement = contribution to uptake; value = 94%
Compound = CC(C)(C)N1Cc2cc(-c3nc4ccccc4s3)cc(n2)CN(C(C)(C)C)Cc2cc(-c3nc4ccccc4s3)cc(n2)C1; target = Cu(II) complex; test = UV-vis titration; test system = 0.1 M NaCl; setting = 25 °C, bound water deprotonation; measurement = pKa; value = 9.5
Compound = CN(O)C(=O)CCC(=O)NCCCN(CCCCN(CCCNC(=O)CCC(=O)N(C)O)C(=O)CCC(=O)N(C)O)C(=O)CCC(=O)N(C)O.[89Zr]; target = TF; test = transchelation challenge; setting = concentration not given, 1 days, 37 °C, with: apo-transferrin 10 equiv; measurement = transferrin binding; value = 12.5 ± 1.3%
Compound = C=CC(=O)Nc1cc(Nc2nccc(-c3cn(C)c4ccccc34)n2)c(OCC(F)(F)F)nc1N(C)CCN(C)C; target = Cytochrome P450 3A4 (CYP3A4, Homo sapiens, UniProt P08684); test = substrate; setting = 3 µM, 60 min, 3A4 isoform, liver abundance-normalized; measurement = contribution to substrate depletion; value = 78.4%
Compound = O=C(c1ccc(OCCN2CCCCC2)cc1)c1c(-c2ccc(O[C@@H]3O[C@H](C(=O)O)[C@@H](O)[C@H](O)[C@H]3O)cc2)sc2cc(O)ccc12; target = SLCO1B3; test = transporter uptake, substrate; test system = HEK293; setting = pH 7.4; measurement = Km; value = 4.13 µM
Compound = C[C@@]1(F)[C@H](O)[C@@H](CO)O[C@H]1n1cnc2c(=O)[nH]c(N)nc21; target = ABCG2; test = bidirectional transport; test system = MDCKII transfected with human BCRP; setting = 10 µM, with: Ko143 1 µM; measurement = Papp B to A; value = 2.19 ± 0.12 ×10⁻⁶ cm/s
Compound = CN(CCNCc1ccncc1[O-])CCNCc1ccncc1[O-].[Cl-].[Fe+3]; target = TF; setting = 0.05 mM, pH 7.4, 37 °C, with: transferrin 0.10 mM; measurement = transchelation half-life; value = 19 min
Compound = C[C@]12CC[C@@H]3c4ccc(O)cc4CC[C@H]3[C@@H]1CC[C@@H]2O[C@@H]1O[C@H](C(=O)O)[C@@H](O)[C@H](O)[C@H]1O; target = SLCO1B3; test system = HEK293-A expressing SLCO1B3; setting = 1 µM, 2 min; measurement = uptake; value = 2520 fmol/mg protein
Compound = CNc1nc(N)nc2c1ncn2[C@@H]1O[C@H](CO[P@](=O)(O)N[C@@H](C)C(=O)O)[C@@H](O)[C@@]1(C)F; target = ABCG2; test = bidirectional transport; test system = MDCKII transfected with human BCRP; setting = 10 µM, with: Ko143 1 µM; measurement = efflux ratio; value = 0.854 ± 0.123
Compound = c1ccc(CN2Cc3cccc(n3)CN(Cc3ccccn3)Cc3cccc(n3)C2)nc1; target = Mn2+; test = potentiometric titration; test system = 0.16 M NaCl; setting = 25 °C; measurement = log stability constant, hydroxo complex; value = 10.8
Compound = CNc1nc(N)nc2c1ncn2[C@@H]1O[C@H](CO)[C@@H](O)[C@@]1(C)F; target = ABCG2; test = bidirectional transport; test system = MDCKII transfected with human BCRP; setting = 10 µM; measurement = Papp B to A; value = 23.1 ± 1.3 ×10⁻⁶ cm/s
Compound = CNC(=O)C1CCCN(C(=O)C2CC3CCC2N3C(=O)[C@@H]2C[C@@H](O)CN2C(=O)NCc2cccc(Cl)c2F)C1 (mixture of isomers); target = Cytochrome P450 1A2 (CYP1A2, Homo sapiens, UniProt P05177); test = preincubation with NADPH; test system = human; setting = 1.85 µM; scale = reference: negative control; measurement = remaining activity; value = 93.4% and 103% and 94.6%
Compound = CN(CCNCc1cc(C(=O)[O-])ccc1[O-])CCNCc1cc(C(=O)[O-])ccc1[O-].[Cl-].[Fe+3].[K+].[K+]; target = TF; setting = pH 7.4, 37 °C, 4-fold transferrin decrease; measurement = transchelation half-life; value = 28 min
Compound = O=C(O)c1cccc(CN2Cc3cccc(n3)CN(Cc3cccc(C(=O)O)n3)Cc3cccc(n3)C2)n1; target = Mn2+; test = potentiometric titration; setting = pH 7.4, ligand and Mn2+ 10 µM; measurement = pMn; value = 7.94

For quick reference, copied from above:
Compound = CC(C)(C)N1Cc2cc(-c3nc4ccccc4s3)cc(n2)CN(C(C)(C)C)Cc2cc(-c3nc4ccccc4s3)cc(n2)C1; target = Cu(II) complex; test = UV-vis titration; test system = 0.1 M NaCl; setting = 25 °C, bound water deprotonation; measurement = pKa; value = 9.5
